Experimental data pooled from the literature.
Each line is one published result; not all experiments were run side by side. Numbers after ± are the reported error.
Type II NADH:quinone oxidoreductase Ndh: Type II NADH:quinone oxidoreductase Ndh (Mycobacterium tuberculosis, UniProt P95160)
Sequence of UniProt P95160 (whole entry, looked up): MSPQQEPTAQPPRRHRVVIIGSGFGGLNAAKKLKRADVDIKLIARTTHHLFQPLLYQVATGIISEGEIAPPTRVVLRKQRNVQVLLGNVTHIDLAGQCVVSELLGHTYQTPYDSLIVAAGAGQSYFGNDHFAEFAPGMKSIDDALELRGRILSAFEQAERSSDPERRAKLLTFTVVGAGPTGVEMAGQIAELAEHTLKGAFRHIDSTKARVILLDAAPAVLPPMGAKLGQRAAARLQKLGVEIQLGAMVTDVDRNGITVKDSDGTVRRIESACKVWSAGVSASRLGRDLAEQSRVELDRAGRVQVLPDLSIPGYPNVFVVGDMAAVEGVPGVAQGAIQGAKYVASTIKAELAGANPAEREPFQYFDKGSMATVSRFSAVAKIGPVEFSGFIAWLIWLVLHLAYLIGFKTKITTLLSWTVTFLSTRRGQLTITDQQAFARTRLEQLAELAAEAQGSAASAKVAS
ribE: Riboflavin synthase (ribE, Mycobacterium tuberculosis, UniProt P9WK35)
Sequence of UniProt P9WK35 (whole entry, looked up): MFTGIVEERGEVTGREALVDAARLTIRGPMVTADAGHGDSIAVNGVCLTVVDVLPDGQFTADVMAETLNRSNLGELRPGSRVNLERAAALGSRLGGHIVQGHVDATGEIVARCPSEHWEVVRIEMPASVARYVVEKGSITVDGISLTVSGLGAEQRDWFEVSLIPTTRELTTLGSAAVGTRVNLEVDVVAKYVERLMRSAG
ADRA2A: Alpha-2A adrenergic receptor (ADRA2A, Homo sapiens, UniProt P08913)
Sequence of UniProt P08913 (whole entry, looked up): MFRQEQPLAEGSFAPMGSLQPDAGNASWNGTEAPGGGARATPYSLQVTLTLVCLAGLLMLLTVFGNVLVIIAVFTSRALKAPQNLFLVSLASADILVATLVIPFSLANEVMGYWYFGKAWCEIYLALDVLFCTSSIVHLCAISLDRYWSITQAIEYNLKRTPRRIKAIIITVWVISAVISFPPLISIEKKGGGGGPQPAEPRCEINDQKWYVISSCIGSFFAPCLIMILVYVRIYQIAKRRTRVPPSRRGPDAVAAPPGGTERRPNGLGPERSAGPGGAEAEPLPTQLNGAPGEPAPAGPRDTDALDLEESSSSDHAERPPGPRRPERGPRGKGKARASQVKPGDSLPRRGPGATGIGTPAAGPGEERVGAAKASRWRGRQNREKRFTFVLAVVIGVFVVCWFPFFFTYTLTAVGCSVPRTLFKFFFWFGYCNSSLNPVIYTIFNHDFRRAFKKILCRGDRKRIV
fbpC: Diacylglycerol acyltransferase/mycolyltransferase Ag85C (fbpC, Mycobacterium tuberculosis, UniProt P9WQN9)
Sequence of UniProt P9WQN9 (whole entry, looked up): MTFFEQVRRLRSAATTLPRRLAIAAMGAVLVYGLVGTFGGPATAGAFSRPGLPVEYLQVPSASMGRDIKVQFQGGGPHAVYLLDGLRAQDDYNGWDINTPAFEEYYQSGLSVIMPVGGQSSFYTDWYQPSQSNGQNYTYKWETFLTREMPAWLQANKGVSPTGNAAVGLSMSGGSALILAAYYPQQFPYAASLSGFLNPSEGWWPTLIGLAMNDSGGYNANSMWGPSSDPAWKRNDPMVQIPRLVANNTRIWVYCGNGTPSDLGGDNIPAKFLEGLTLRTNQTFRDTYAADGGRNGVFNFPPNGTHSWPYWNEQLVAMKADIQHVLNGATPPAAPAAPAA
Gabrg2/Gabra5 with β3 subunit: Gabrg2/Gabra5, with β3 subunit (Rattus norvegicus, UniProt P18508+P19969)
Sequence of UniProt P18508 (whole entry, looked up): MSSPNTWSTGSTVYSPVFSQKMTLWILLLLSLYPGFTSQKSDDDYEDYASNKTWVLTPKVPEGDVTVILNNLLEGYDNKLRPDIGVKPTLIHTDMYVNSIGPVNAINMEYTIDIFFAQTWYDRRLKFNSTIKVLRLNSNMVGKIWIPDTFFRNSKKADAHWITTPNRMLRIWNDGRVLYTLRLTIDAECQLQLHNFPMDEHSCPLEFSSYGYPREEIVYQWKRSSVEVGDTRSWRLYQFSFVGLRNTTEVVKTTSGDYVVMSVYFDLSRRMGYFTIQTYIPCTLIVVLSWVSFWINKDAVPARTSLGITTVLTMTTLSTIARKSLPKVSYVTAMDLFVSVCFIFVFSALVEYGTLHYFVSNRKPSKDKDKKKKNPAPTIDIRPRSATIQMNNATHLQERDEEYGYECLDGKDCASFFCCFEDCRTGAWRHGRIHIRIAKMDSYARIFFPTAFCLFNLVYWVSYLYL
Sequence of UniProt P19969 (whole entry, looked up): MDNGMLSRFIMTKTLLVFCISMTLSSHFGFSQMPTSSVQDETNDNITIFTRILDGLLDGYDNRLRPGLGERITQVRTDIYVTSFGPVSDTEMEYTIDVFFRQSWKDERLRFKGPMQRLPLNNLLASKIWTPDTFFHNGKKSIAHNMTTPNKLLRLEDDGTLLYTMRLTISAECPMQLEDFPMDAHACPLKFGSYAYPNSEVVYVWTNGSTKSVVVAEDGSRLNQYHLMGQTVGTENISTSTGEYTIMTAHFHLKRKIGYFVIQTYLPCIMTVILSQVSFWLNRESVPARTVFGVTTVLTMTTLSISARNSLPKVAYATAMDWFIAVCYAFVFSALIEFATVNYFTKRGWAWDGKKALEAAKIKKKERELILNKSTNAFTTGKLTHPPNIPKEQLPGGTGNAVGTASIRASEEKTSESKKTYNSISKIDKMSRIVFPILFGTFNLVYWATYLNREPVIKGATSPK
CNR2: Cannabinoid receptor 2 (CNR2, Homo sapiens, UniProt P34972)
Sequence of UniProt P34972 (whole entry, looked up): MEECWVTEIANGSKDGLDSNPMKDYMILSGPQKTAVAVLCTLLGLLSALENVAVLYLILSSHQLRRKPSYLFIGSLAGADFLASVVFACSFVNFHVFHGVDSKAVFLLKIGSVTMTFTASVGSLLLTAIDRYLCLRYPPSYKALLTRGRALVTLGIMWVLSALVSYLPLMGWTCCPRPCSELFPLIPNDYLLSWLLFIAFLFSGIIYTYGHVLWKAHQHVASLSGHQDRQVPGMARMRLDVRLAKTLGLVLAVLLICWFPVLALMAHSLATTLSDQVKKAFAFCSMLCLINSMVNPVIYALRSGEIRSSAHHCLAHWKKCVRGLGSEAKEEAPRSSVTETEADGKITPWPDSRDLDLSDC
OPRK1: Kappa-type opioid receptor (OPRK1, Homo sapiens, UniProt P41145)
Sequence of UniProt P20272 (whole entry, looked up): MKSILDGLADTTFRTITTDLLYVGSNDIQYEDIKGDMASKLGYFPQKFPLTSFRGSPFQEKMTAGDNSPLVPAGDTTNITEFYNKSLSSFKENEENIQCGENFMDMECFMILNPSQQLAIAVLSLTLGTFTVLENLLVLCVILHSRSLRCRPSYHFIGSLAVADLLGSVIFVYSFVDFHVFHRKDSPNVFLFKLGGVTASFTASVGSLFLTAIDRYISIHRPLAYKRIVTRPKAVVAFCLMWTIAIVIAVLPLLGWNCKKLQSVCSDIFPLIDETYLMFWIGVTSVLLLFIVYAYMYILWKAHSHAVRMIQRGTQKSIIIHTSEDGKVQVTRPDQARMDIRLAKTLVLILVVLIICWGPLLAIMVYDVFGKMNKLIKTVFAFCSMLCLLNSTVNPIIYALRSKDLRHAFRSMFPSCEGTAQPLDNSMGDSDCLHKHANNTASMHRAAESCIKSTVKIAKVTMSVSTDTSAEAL
Sequence of UniProt P41145 (whole entry, looked up): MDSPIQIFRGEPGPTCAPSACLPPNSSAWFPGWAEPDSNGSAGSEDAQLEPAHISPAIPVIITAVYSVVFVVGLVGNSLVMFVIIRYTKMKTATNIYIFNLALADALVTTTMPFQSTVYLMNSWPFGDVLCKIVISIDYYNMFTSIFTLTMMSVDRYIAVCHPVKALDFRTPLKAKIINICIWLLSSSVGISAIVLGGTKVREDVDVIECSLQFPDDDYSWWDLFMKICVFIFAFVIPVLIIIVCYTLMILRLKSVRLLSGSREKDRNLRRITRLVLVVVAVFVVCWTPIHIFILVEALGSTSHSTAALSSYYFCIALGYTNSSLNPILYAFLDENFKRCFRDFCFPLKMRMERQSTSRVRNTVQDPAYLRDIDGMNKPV
Sequence of UniProt O15244 (whole entry, looked up): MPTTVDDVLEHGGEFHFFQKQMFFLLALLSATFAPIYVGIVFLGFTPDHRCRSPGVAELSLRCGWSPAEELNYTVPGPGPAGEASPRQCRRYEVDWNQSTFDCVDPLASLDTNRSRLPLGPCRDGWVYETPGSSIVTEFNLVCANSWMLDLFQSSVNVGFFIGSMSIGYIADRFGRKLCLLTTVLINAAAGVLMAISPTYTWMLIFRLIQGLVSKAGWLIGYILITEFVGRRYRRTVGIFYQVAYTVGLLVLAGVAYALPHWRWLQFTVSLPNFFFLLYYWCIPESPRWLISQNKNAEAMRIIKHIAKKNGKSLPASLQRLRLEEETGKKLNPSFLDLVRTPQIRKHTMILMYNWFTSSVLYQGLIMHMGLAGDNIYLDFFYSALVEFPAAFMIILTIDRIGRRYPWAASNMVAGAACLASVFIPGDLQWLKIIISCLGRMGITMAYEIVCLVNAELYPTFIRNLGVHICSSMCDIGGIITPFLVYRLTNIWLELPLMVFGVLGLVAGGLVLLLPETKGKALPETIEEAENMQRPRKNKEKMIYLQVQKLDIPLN
Sequence of UniProt P47746 (whole entry, looked up): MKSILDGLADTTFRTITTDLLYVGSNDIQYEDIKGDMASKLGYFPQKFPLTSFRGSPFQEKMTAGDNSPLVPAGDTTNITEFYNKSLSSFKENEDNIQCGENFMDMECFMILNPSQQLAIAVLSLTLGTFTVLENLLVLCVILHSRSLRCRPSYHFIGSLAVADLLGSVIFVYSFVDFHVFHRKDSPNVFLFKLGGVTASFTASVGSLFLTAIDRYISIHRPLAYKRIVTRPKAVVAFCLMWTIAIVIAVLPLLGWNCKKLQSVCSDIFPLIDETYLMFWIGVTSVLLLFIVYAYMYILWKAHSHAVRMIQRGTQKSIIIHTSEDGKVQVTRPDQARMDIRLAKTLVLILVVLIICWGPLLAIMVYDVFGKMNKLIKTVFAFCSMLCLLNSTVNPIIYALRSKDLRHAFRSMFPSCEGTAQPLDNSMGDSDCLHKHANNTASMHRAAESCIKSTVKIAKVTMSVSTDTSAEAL
Sequence of UniProt P07148 (whole entry, looked up): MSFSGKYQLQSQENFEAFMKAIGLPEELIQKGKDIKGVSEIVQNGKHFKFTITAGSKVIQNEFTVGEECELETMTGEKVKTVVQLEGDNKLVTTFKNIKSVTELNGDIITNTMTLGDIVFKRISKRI
Sequence of UniProt P0DOF5 (whole entry, looked up): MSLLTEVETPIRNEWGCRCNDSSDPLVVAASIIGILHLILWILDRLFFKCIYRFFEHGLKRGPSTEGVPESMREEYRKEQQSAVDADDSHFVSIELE

Structure (SMILES) | target | test | test system | conditions | how to read | quantity | value
CN1CC[C@]23c4c5ccc(O)c4O[C@H]2[C@@H](O)C=C[C@H]3[C@H]1C5 | Nociceptin receptor (OPRL1, Homo sapiens, UniProt P41146) | agonist | – | – | – | Emax | 13.8%
N[C@@H](Cc1c[nH]c2ccccc12)C(=O)O | IDO1 (Homo sapiens, UniProt P14902) | stopped-flow absorption | – | 20 °C, first site, cyanide-bound ferric, with: cyanide 1 mM | – | kon | 120000 M⁻¹ s⁻¹
COC1=C(OC)C(=O)C(C/C=C(\C)CCC=C(C)C)=C(C)C1=O | Type II NADH:quinone oxidoreductase Ndh | enzyme activity, substrate | – | – | – | Km | 51 ± 50 µM
O=c1[nH]c(/C=C/c2ccc(F)cc2)c([N+](=O)[O-])c(=O)[nH]1 | ribE | enzyme activity, substrate | Mycobacterium tuberculosis, recombinant riboflavin synthase | pH 7.0 | – | Ks | 14 ± 1 µM
C1CCC2(CC1)CCNCC2 | Matrix protein 2 (Influenza A virus, UniProt P0DOF5) | ion channel current, inhibitor, two-electrode voltage clamp | Xenopus oocytes | 100 µM | – | remaining activity | 5%
Cc1cc2cccc(C(=O)N[C@H]3CC[C@@]4(O)[C@H]5Cc6ccc(O)c7c6[C@@]4(CCN5CC4CC4)[C@H]3O7)c2[nH]1 | Oprd1 (Mus musculus, UniProt P32300) | agonist | – | – | reference: SNC80 | Emax | ~77%
CC1N=C(c2ccccc2F)c2cc(NC3CCCCC3)ccc2NC1=O (stereo not shown) | ADRA2A | ligand displacement, radioligand | – | 10 µM | – | inhibition | 61%
CC1(C)Oc2cc([C@]34CC5CC(C[C@@](N=C=S)(C5)C3)C4)cc(O)c2[C@@H]2C[C@H](O)CC[C@H]21 | Cnr1 (Rattus norvegicus, UniProt P20272) | radioligand binding Bmax reduction | rat brain membranes | 10-fold Ki, with: [3H]CP-55,940 | reference: untreated | covalent labeling | 54%
O=c1c2ccccc2[se]n1C12CC3CC(CC(C3)C1)C2 | fbpC | inhibitor, resorufin butyrate fluorescence | – | 5 µM, 40 min preincubation | reference: untreated | remaining activity | 59 ± 14%
CCCCCc1cc(O)c2c(c1)OC(C)(C)[C@@H]1CCC(C)=C[C@@H]21 | Cnr1 (Mus musculus, UniProt P47746) | G protein activation, agonist | ICR mouse, male, cerebellar membranes | – | reference: basal binding | Emax | 56%
COC1=C(OC)C(=O)C(CC=C(C)C)=C(C)C1=O | Type II NADH:quinone oxidoreductase Ndh | enzyme activity, substrate | – | – | – | Km | 50 ± 20 µM
CC1N=C(c2ccccc2F)c2cc(N(C)C)ccc2NC1=O (stereo not shown) | ADRA2A | ligand displacement, radioligand | – | 10 µM | – | inhibition | 41%
COc1ccccc1Cn1[se]c2ccccc2c1=O | fbpC | inhibitor, resorufin butyrate fluorescence | – | 5 µM, 40 min preincubation | reference: untreated | remaining activity | 36 ± 4%
O=c1[nH]c(/C=C/c2cc(O)ccc2O)c([N+](=O)[O-])c(=O)[nH]1 | ribE | enzyme activity, substrate | Mycobacterium tuberculosis, recombinant riboflavin synthase | pH 7.0 | – | Ks | 7.7 ± 1.3 µM
CN1C(=O)CN=C(c2ccccc2)c2cc(Cl)ccc21 | Gabrg2/Gabra5 with β3 subunit | GABA-induced chloride current, two-electrode voltage clamp | Xenopus oocytes | with: GABA at EC3 | – | Emax | 321 ± 14%
C[C@]12CC[C@H](O)CC1=CC[C@@H]1[C@@H]2CC[C@]2(C)C(=O)CC[C@@H]12 | HSD3B2 (Homo sapiens, UniProt P26439) | substrate | – | pH 7.4, 27 °C, with: NAD+ 200 µM | – | Km | 47.3 µM
O=c1c2ccccc2[se]n1CC1CCCCC1 | fbpC | inhibitor, resorufin butyrate fluorescence | – | 5 µM, 40 min preincubation | reference: untreated | remaining activity | 30 ± 16%
CC1(C)Oc2cc([C@]34CC5CC(C[C@@](CN=C=S)(C5)C3)C4)cc(O)c2[C@@H]2C[C@H](O)CC[C@H]21 | Cnr1 (Rattus norvegicus, UniProt P20272) | radioligand binding Bmax reduction | rat brain membranes | 10-fold Ki, with: [3H]CP-55,940 | reference: untreated | covalent labeling | 63%
CNC(=O)C(C)(C)NC(=O)c1nn(Cc2ccc(F)cc2)c2ccccc12 | CNR2 | calcium mobilization, agonist | CHO-K1 expressing Gαq16 | – | reference: CP55,940 maximum | Emax | 84 ± 5%

Structure (SMILES) | target | test | test system | conditions | how to read | quantity | value
Nc1ncnc2c1ncn2[C@@H]1O[C@H](COP(=O)(O)OP(=O)(O)OP(O)(O)=S)[C@@H](O)[C@H]1O | Serine/threonine-protein kinase PknF (pknF, Mycobacterium tuberculosis, UniProt P9WI75) | ATP probe labelling, competitor, chemoproteomics | Mycobacterium tuberculosis, lysate | 500 µM | reference: untreated | fold change | 3.67 fold
Cc1ccc(/C=C/C(=O)N[C@@]23CCC(=O)[C@@H]4Oc5c(O)ccc6c5[C@@]42CCN(CC2CC2)[C@@H]3C6)cc1 | Oprm1 (Rattus norvegicus, UniProt P33535) | antagonist | rat PGE2 thermal hypersensitivity | intraplantar, 0.25 µg/50 µL | – | duration of DAMGO antinociception blockade | ≤ 96 h
CC(C)(NC(=O)c1nn(Cc2ccc(F)cc2)c2ccccc12)C(=O)N1CCC[C@H]1C(N)=O | CNR2 | calcium mobilization, agonist | CHO-K1 expressing Gαq16 | – | reference: CP55,940 maximum | Emax | 82 ± 6%
C[n+]1ccc(-c2ccccc2)cc1 | SLC22A2 (Homo sapiens, UniProt O15244) | substrate | CHO expressing OCT2 | 8 nM, 30 s | – | uptake increase by shaking | 72%
Cc1ccc(N(C)S(=O)(=O)c2ccc3[nH]c(=O)c(=O)[nH]c3c2)cc1 | eis (Mycobacterium tuberculosis, UniProt P9WFK7) | inhibitor, HTS | – | 20 µM | – | activity class | inactive
CN1CCCC2C(c3ccccc3)C(C3=NCCCC3)C(c3ccccc3)CC21 (stereo not shown) | rat α4β2 and α7 nicotinic receptors | radioligand displacement | – | at epibatidine ID50 | reference: [3H]-cytisine over [3H]-MLA displacement | differential displacement ratio | 1.32
O=c1[nH]c(/C=C/c2cc([N+](=O)[O-])ccc2O)c([N+](=O)[O-])c(=O)[nH]1 | ribE | enzyme activity, substrate | Mycobacterium tuberculosis, recombinant riboflavin synthase | pH 7.0 | – | Ks | 10 ± 0.5 µM
CCCCCc1cc(O)c2c(c1)OC(C)(C)[C@@H]1CCC(C)=C[C@@H]21 | FABP1 (Homo sapiens, UniProt P07148) | binding, DAUDA displacement | – | concentration not given | reference: no competitor | remaining fluorescence | 52 ± 4%
CC(C)[C@H](NC(=O)c1nn(Cc2ccc(F)cc2)c2ccccc12)C(=O)O | CNR2 | calcium mobilization, agonist | CHO-K1 expressing Gαq16 | – | reference: CP55,940 maximum | Emax | 54 ± 1%
CN1CCN(C(=O)OC2c3nccnc3C(=O)N2c2ccc(Cl)cn2)CC1 (stereo not shown) | Gabrg2/Gabra2, with β3 subunit (Rattus norvegicus, UniProt P18508+P23576) | GABA-induced chloride current, two-electrode voltage clamp | Xenopus oocytes | with: GABA at EC3 | – | Emax | 356 ± 22%
CN[C@@H](C)[C@H](O)c1ccccc1 | 4'-phosphopantetheinyl transferase PptT (Mycobacterium tuberculosis, UniProt O33336) | inhibitor | – | concentration not given | – | enzyme activity | inactive
CN(C(=O)/C=C/c1ccoc1)[C@@H]1CC[C@@]2(O)[C@H]3Cc4ccc(O)c5c4[C@@]2(CCN3CC2CC2)[C@H]1O5 | OPRK1 | G protein activation, agonist, GloSensor cAMP | HEK293T | concentration not given | reference: U50488H | log relative intrinsic activity | 0.94 ± 0.14
CNC(=O)[C@@H](NC(=O)c1nn(Cc2ccc(F)cc2)c2ccccc12)C(C)C | CNR2 | calcium mobilization, agonist | CHO-K1 expressing Gαq16 | – | reference: CP55,940 maximum | Emax | 73 ± 3%
C#Cc1ccc2c(c1)C(c1ccccc1F)=N[C@H](C)c1c(C(=O)NC)ncn1-2 | Gabrg2/Gabra5 with β3 subunit | GABA-A α5β3γ2 current, positive allosteric modulator, two-electrode voltage clamp | Xenopus oocytes | with: GABA EC3-5 | – | minimum effective concentration | ≥ 10 nM
O=C(NCc1ccc(F)cc1)c1nn(Cc2ccc(F)cc2)c2ccccc12 | CNR2 | calcium mobilization, agonist | CHO-K1 expressing Gαq16 | – | reference: CP55,940 maximum | Emax | 53%
O=c1c2ccccc2[se]n1-c1ccccc1 | fbpC | inhibitor, resorufin butyrate fluorescence | – | 5 µM, 40 min preincubation | reference: untreated | remaining activity | 17 ± 3%
CC(C)(NC(=O)c1nn(Cc2ccc(F)cc2)c2ccccc12)C(=O)Nc1cccc(C(N)=O)c1 | CNR2 | calcium mobilization, agonist | CHO-K1 expressing Gαq16 | – | reference: CP55,940 maximum | Emax | 70 ± 2%
CN(C(=O)/C=C/c1ccoc1)[C@@H]1CC[C@@]2(O)[C@H]3Cc4cccc5c4[C@@]2(CCN3CC2CC2)[C@H]1O5 | OPRK1 | beta-arrestin 2 recruitment, agonist, Tango | HEK293 | concentration not given | reference: U50488H | log relative intrinsic activity | -0.28 ± 0.03

A few entries again:
Structure (SMILES) | target | test | test system | conditions | how to read | quantity | value
CN(C(=O)/C=C/c1ccoc1)[C@@H]1CC[C@@]2(O)[C@H]3Cc4ccc(O)c5c4[C@@]2(CCN3CC2CC2)[C@H]1O5 | OPRK1 | G protein activation, agonist, GloSensor cAMP | HEK293T | concentration not given | reference: U50488H | log relative intrinsic activity | 0.94 ± 0.14
CNC(=O)[C@@H](NC(=O)c1nn(Cc2ccc(F)cc2)c2ccccc12)C(C)C | CNR2 | calcium mobilization, agonist | CHO-K1 expressing Gαq16 | – | reference: CP55,940 maximum | Emax | 73 ± 3%
C#Cc1ccc2c(c1)C(c1ccccc1F)=N[C@H](C)c1c(C(=O)NC)ncn1-2 | Gabrg2/Gabra5 with β3 subunit | GABA-A α5β3γ2 current, positive allosteric modulator, two-electrode voltage clamp | Xenopus oocytes | with: GABA EC3-5 | – | minimum effective concentration | ≥ 10 nM
O=C(NCc1ccc(F)cc1)c1nn(Cc2ccc(F)cc2)c2ccccc12 | CNR2 | calcium mobilization, agonist | CHO-K1 expressing Gαq16 | – | reference: CP55,940 maximum | Emax | 53%
O=c1c2ccccc2[se]n1-c1ccccc1 | fbpC | inhibitor, resorufin butyrate fluorescence | – | 5 µM, 40 min preincubation | reference: untreated | remaining activity | 17 ± 3%
CC(C)(NC(=O)c1nn(Cc2ccc(F)cc2)c2ccccc12)C(=O)Nc1cccc(C(N)=O)c1 | CNR2 | calcium mobilization, agonist | CHO-K1 expressing Gαq16 | – | reference: CP55,940 maximum | Emax | 70 ± 2%
